Results collected from several papers.
Each numbered part is a random draw from the data of one study; scales do not carry over between parts. Substitutions count along the parent as printed.

Set 1
Target: CCNA2, cyclin fold, Cln2 fusion (human)
Technique: yeast growth competition, sequencing
Matrix: yeast
Setting: strong parent motif
Reference: not given
Direction: higher = stronger binding
Starting sequence: RBL2 docking peptide (human); STTRRRLFVENDS
| Variant | normalised enrichment score |
| --- | --- |
| STTRRCLFVENDS [R6C] | 5.09 |
| STTRRRLFVEFDS [N11F] | 5.98 |
| STTRRRLFVENFS [D12F] | 5.19 |
| STTRRRLFVEVDS [N11V] | 6.14 |
| STTRRRLFVENDW [S13W] | 5.39 |
| SFTRRRLFVENDS [T2F] | 4.74 |
| STTRRRLHVENDS [F8H] | 0.017 |
| STTRRSLFVENDS [R6S] | 2.75 |
| STTRRRLFVENQS [D12Q] | 5.04 |
| STTRRRLFVENDH [S13H] | 5.9 |
| STTRRRLFVENCS [D12C] | 5.76 |
| STTRRRLCVENDS [F8C] | 1.56 |
| STTRNRLFVENDS [R5N] | 0.218 |
| STTRRRLFVCNDS [E10C] | 4.47 |
| STTRRRLFVELDS [N11L] | 5.78 |
| STTCRRLFVENDS [R4C] | 4.42 |
| STTRRRKFVENDS [L7K] | 0.199 |
| STTRRRLFVENDV [S13V] | 5.31 |
| STTRRRLFVQNDS [E10Q] | 4.89 |
| STTRRRLFVENDF [S13F] | 5.98 |
| STTKRRLFVENDS [R4K] | 4.57 |
| STTRRTLFVENDS [R6T] | 2.59 |
| STTRRHLFVENDS [R6H] | 1.06 |
| STTRLRLFVENDS [R5L] | 0.242 |
| STTRRRLFVERDS [N11R] | 5.61 |

Set 2
Target: RNA binding protein fox-1 homolog 2, RRM domain, GST-SBP tag (RBFOX2, Homo sapiens, UniProt O43251-10, residues 100-194)
Technique: RNA Bind-n-Seq
Form: RNA
Matrix: in vitro
Concentration: 365 nM
Setting: natural RNA segment, single round, ends assumed
Reference: no-protein control
Direction: higher = stronger binding
All sequences stand within: GGGAGUUCUACAGUCCGACGAUC … UGGAAUUCUCGGGUGCCAA
Construct (chain): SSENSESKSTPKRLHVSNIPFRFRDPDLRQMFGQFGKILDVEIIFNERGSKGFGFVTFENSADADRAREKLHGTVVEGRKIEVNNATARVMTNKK
| Strand | RBNS enrichment (R) |
| --- | --- |
| CCUAUAAGGGACAAGAGAAGGCCUGCCCAGCAUAGCACAAACAAGGAAAUAAAUAGGUGUUGGCAGGGCCAUGCUUGGGGCACCGCUCCCUGCUUCCUUCUUUCUAGUUU | 1.08 |
| UAAAAACAAAUUGGAAGAAUAACCAGGACAGCCAAGUGAAGCAGCCACAGGGACCCAAGCAGUCGAGGUCUUUAAUGUGCCUGGAGAUGACUCUCUGCUAUUCAUGAAUC | 0.563 |
| CUCACUCAGCCUCCUCAGAACACAAGAUGGCCCGCAGAGGACGGCAGUUACCAGCCUCCUUCCUGCUUCUCUGCCAGGCCACAGAGAAAGCCUUGGAAGGCUGCUUGCUC | 0.543 |
| UGCAGCAGCCCAGCUGUGUUUCUCAUUGAUGAUAAUAGUAGGCUCUACUGCCCUCCCCUCCCCUAUCCAAGUAGCAGUUAAGUUCCAUCCAAAUACGUGGGACUCAAAGA | 0.525 |
| UUAGAAAUCAUCUUUGUGGGAAGACCUAAUUCUUCACAGCAAGGAUCUCAGGCAUGCCUUCUAGAUUUGUUCCCUCUGAGGGGCAGGAAUGAACUGUAGAAAUGUUUUAA | 6.8 |
| CCCAUGUUUAUUAAGAAUCAUUGUGCUUAAUAAUACCAAGACUAAGCACCAUAACCAAGAAAUACUAAUGUAAAGAUUGUUUCUUGUUUCAGGAAUGGUUAAUUCUUCAA | 0.351 |
| UCCUAAGGAGUAGAGAAUGGCACUGGGGAGGUCUGGAUGGAUCUGGUUUGUGUAGGAGUUCCCUGUAGAUAAAUUACUGGUCCCCCAACCACUAUCCCCAGUAUGUAAUG | 4.38 |
| GGGUGUUCCUGUUUAACUUUCUGGGUUUGUUUGUUUUAUUUUAUUAGAAAGACACUUAUAUGACACUCAGGUGUCUGCUAUUUAUCUUGAUUUCUAAAUGGUUCUGGAUU | 1.74 |
| UCAGACACUCCUGCCUCAGUUUCUUAGAACAGUGUUGCUAUUGAUGCUUAAGAAUAAUUGCCUCUUGGGCAAGAUGAUUGGGCUCCUGGCAAAUGUUCAAUUAAAAAGUG | 0.301 |
| ACACAUUCCCGGUGAUAGAAUUGCUAAAUUGUCGUGAAAUAGGUUAGAAUUUUUCUUUAAAUUAUGGUUUUCUUAUUCGUGAAAAUUCGGAGAGUGCUGCUAAAAUUGGA | 0.834 |
| GACCAUUUGUGUACAAGUGUUUGUGCAGACAUAUGUUUAACUUUUUAGGAAAUUGCCAGACUGUUUUCCAAAGAAGCUGCACCAUUUUACAUUUGCACCAGCAAUGUAGG | 0.43 |
| UGUUGCAGCUUUCCUUCCCUCUAGCUCAGGAGGCCUGGCCUGAGCCAGGUUGGAGCUUAAAUUGCUGUUGGCUCCUGCCUGGUGGAACAAGGGGGUCAUAGAAACCAGGG | 0.342 |

Set 3
Target: Interferon regulatory factor 7, full length, phosphomimetic (IRF7, Homo sapiens, UniProt Q92985, residues 1-503, S471D/S472D/S475D/S476D/S477D/S483D/S484D/S487D)
Sequence of UniProt Q92985 (whole entry, unmodified, looked up): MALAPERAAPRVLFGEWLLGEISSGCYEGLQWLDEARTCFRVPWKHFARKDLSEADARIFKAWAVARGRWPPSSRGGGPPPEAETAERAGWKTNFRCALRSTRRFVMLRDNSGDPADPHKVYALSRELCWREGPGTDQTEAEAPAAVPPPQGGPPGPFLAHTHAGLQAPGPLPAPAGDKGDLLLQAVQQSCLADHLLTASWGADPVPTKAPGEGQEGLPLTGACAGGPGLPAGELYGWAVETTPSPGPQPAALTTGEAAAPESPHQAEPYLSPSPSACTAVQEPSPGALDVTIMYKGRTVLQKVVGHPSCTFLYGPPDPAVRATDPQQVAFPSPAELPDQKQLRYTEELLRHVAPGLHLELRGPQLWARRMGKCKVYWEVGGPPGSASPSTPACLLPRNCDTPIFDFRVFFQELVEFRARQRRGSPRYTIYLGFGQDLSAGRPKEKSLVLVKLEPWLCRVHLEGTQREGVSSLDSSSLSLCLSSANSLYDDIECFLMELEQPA
Technique: protein-binding microarray
Form: double-stranded DNA, one strand shown
Matrix: in vitro
Concentration: 2200 nM top
Setting: 60-bp whole probe
Added: salmon DNA 0.4 mg/ml
Reference: random background probes
Direction: higher = stronger binding
All sequences stand within: GCCTAGCAC … GTCTTGATTCGCTTGACGCTGCTG
| Strand | fitted relative affinity [z-score] |
| --- | --- |
| GTCGGACTGGGGTATCGGGACGTGCTA | -0.755 |
| TTCGGTATCCTTCTCCTTTAGTGCTAG | 2.38 |
| CTCCCCCTCCCCCTCAGATCGTGCTAG | -0.0654 |
| AGATTTTTTTTCCTAATTGAGTGCTAG | 0.546 |
| TTAGGACAGGGGACTGGGTTAGTGCTA | -1.05 |
| GACTCTTTCTGTCAGTTTTGGTGCTAG | 1.44 |
| GACTGTTTCCTTATCCTGACGTGCTAG | 3.12 |
| GTCGGTCTCCTTCTCCTGACGTGCTAG | 1.81 |
| TTAGGTTCCCTCTTCCTTTAGTGCTAG | 1.63 |
| GACGGTTTCGTTTCCCTGACGTGCTAG | 10.9 |
| CACATTGTGCAATCTTAATAAGTGCTA | 0.894 |
| GACGATATCGGGTCTGGAGACGTGCTA | -0.029 |
| AGAATTTCCACTTTGACTTAGTGCTAG | 1.79 |
| TTAGGTTTCGGTACCGGTTAGTGCTAG | 4.97 |
| TTAGGTCTCCTTCTCCCTTAGTGCTAG | 1.1 |
| TCAGTTTTGTTTTTCATACTGTGCTAG | 4.6 |
| GACGGTTTCGGTTTCCGGACGTGCTAG | 14.7 |
| GACGATTTCAGTCACGAGACGTGCTAG | 0.368 |
| GACGATTTCAGTTTCCAGACGTGCTAG | 3.69 |
| GAGGGTATCCTTTTCCTGACGTGCTAG | 0.697 |
| GACGATTTCGGGTTTCTAGACGTGCTA | 4.51 |
| TTAGGAATCGACTTTCGGTTAGTGCTA | 5.72 |
| TTTGAACTGAGTTTCGATTAGTGCTAG | 3.76 |
| CCCAGGACCCTGGAACTGGCGTGCTAG | -1.08 |
| TCATTCTTCCCTGTGAAACTGTGCTAG | 1.99 |

Set 4
Target: Histone acetyltransferase KAT6A, winged helix 2, GST fusion (KAT6A, Homo sapiens, UniProt Q92794, residues 85-181)
Technique: protein binding microarray
Form: double-stranded DNA, one strand shown
Matrix: in vitro
Concentration: not given
Setting: 8-mer, flanks averaged, mean of 2 arrays, mostly near background
Reference: not given
Direction: higher = stronger binding
Construct (chain): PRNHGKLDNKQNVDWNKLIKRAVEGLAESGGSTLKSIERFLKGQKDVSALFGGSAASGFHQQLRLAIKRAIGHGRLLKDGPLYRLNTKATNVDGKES
| Strand | E-score |
| --- | --- |
| GTCGCCCA | 0.0132 |
| AGGCTTCA | -0.154 |
| AACCGACG | 0.25 |
| CGCAAGCC | 0.182 |
| CCCGTCAC | 0.0589 |
| AGCTTTTG | 0.0338 |
| CTCGGATC | 0.0774 |
| CTGGGTAC | 0.038 |
| CCTATGCA | -0.00113 |
| CGAGACCC | -0.00745 |
| AGGCGGGC | 0.125 |
| ATGAATTA | 0.0747 |
| ATGCAGCC | 0.0862 |
| GATCTACA | 0.0911 |
| GACGGATA | -0.0244 |
| ACTGTTTC | -0.0641 |
| AGCCTCGC | 0.038 |
| CACTGCCC | 0.0294 |
| CATATGGG | -0.153 |

Set 5
Target: PABPC1L2, full length, GST fusion (mouse, UniProt A0ABA7IW68)
Technique: RNAcompete
Form: RNA
Matrix: in vitro
Concentration: 20 nM
Setting: 7-mer, probes averaged, single round
Reference: mean of 7-mers
Direction: higher = stronger binding
Residues (chain): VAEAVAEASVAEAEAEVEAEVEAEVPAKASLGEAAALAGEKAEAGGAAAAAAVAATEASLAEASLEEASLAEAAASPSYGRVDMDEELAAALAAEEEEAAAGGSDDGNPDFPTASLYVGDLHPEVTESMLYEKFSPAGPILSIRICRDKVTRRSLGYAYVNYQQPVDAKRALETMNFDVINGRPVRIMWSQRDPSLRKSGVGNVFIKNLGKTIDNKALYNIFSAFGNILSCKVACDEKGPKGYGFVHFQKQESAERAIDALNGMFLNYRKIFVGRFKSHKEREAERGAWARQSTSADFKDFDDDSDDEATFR
| Strand | 7-mer Z-score |
| --- | --- |
| UGUAUCC | -0.329 |
| UGGUGGU | -0.219 |
| UCUCCGG | -0.405 |
| GACUGAC | -0.0935 |
| GGGUAGU | 0.0587 |
| AGACCAG | -0.188 |
| GACAUGU | -0.0935 |
| GCGCUUC | -0.226 |
| GUCAGCA | -0.157 |
| CUAUUGG | -0.159 |
| GGCGAGC | 0.258 |
| UUCCGCU | -0.463 |
| UGGACGU | -0.0681 |
| ACAACGA | 0.274 |
| UGCGUCC | -0.345 |
| CACUACA | -0.0156 |
| CCGGCAU | -0.296 |
| UUGAGUA | -0.0881 |
| AGGAAAU | 0.274 |
| GAGGCCC | -0.202 |
| AUAAAGG | 1.29 |
| AACAUGC | 0.454 |
| CCUUACG | -0.389 |
| UGAAGAG | -0.108 |
| GACUAUU | -0.191 |

Mixed results
| Molecule | target | test | test system | setting | how to read | measurement | result |
| --- | --- | --- | --- | --- | --- | --- | --- |
| PhoQ, residues 284 288 289 292 302 303 ASASEQ | PhoP, residues 12 14 15 18 19 NHFIF (Escherichia coli, UniProt P23836) | Sort-seq, refers to: YFP reporter | E. coli | PhoQ-PhoP variant library, added: 10 µM Mg2+ | reference: high Mg2+ state, higher = stronger signaling | fold induction | 10.1 |

For quick reference, copied from above (set 1):
| Variant | normalised enrichment score |
| --- | --- |
| STTRRRLFVENDH [S13H] | 5.9 |
| STTRRRLFVENCS [D12C] | 5.76 |
| STTRRRLCVENDS [F8C] | 1.56 |
| STTRNRLFVENDS [R5N] | 0.218 |
| STTRRRLFVCNDS [E10C] | 4.47 |
| STTRRRLFVELDS [N11L] | 5.78 |
| STTCRRLFVENDS [R4C] | 4.42 |
| STTRRRKFVENDS [L7K] | 0.199 |
| STTRRRLFVENDV [S13V] | 5.31 |
| STTRRRLFVQNDS [E10Q] | 4.89 |
| STTRRRLFVENDF [S13F] | 5.98 |
| STTKRRLFVENDS [R4K] | 4.57 |
| STTRRTLFVENDS [R6T] | 2.59 |
| STTRRHLFVENDS [R6H] | 1.06 |
